Assay results gathered from unrelated publications.
Compare with care: the assays were run in different laboratories.

Compound	test	test system	conditions	how to read	measurement	result
CC(=O)N(C)[C@H]1CCN(C(=O)c2cnc3c(c2)C[C@](C)(c2ccc(F)cc2)N3)C1	refers to: stomach discomfort	human	oral, 30 mg once daily		adverse event duration	2 days
CC(C)N(CCCCOCC(=O)NS(C)(=O)=O)c1cnc(-c2ccccc2)c(-c2ccccc2)n1	refers to: Fatigue	healthy male human	oral, 200 µg		adverse event incidence	4.5%
CO[C@H]1/C=C/O[C@@]2(C)Oc3c(C)c(O)c4c(O)c(c(/C=N/N5CCN(C)CC5)c(O)c4c3C2=O)NC(=O)/C(C)=C\C=C\[C@H](C)[C@H](O)[C@@H](C)[C@@H](O)[C@@H](C)[C@H](OC(C)=O)[C@@H]1C	refers to: skin subcutaneous tissue disorders	healthy human participants	oral, 600 mg, together with: gepotidacin 1500 mg		adverse event incidence	6%
O=C(COc1ccc(Cl)cc1)NC12CC(c3nnc([C@H]4C[C@@H](OC(F)(F)F)C4)o3)(C1)C2	refers to: post lumbar puncture syndrome	human	200 mg once daily, 28 (unit not given)		adverse event incidence	22.2%
C[C@@H](c1nc(-c2ccc(C#N)cc2)cs1)[C@](O)(Cn1cncn1)c1cc(F)ccc1F		healthy humans	oral, dose not given, together with: ketoconazole		adverse event Pruritus	0%
C[C@@H](Oc1ccc(S(C)(=O)=O)cc1C(=O)N1C[C@@H]2C[C@]2(c2cc(C(F)(F)F)on2)C1)C(F)(F)F		human	oral, 25 mg		adverse events	16.7%
O=C(NCCN1CCCC1)c1cc(-c2ccc(CN3CCOCC3)cc2)nc2ccc(F)cc12	blurred vision, single ascending dose	human	oral, 2100 mg		adverse event duration	0.771 days
CNC(=O)c1ccc(-c2cnc3ncc(Cc4ccc5ncccc5c4)n3n2)cc1F		human, Japanese cohort	oral, 400 mg, organising pneumonia, grade 3/4		adverse events leading to treatment discontinuation	0 % patients
O=C(Nc1cnccc1Cl)N1CCN(Cc2ccc3c(c2)OC(F)(F)O3)CC1	refers to: Ecchymosis	human healthy young men	10 mg, multiple dose		adverse event incidence	0%
CNC(=O)c1ccc(-c2cnc3ncc(Cc4ccc5ncccc5c4)n3n2)cc1F	refers to: nausea	healthy human subjects	oral, dose not given, inhibition cohort, any grade, all-causality	relative to: subjects	adverse event incidence	11.1%
CO[C@H]1/C=C/O[C@@]2(C)Oc3c(C)c(O)c4c(O)c(c(/C=N/N5CCN(C)CC5)c(O)c4c3C2=O)NC(=O)/C(C)=C\C=C\[C@H](C)[C@H](O)[C@@H](C)[C@@H](O)[C@@H](C)[C@H](OC(C)=O)[C@@H]1C		healthy humans	oral, dose not given		adverse event Fatigue	8.3%
C[C@@H](N)c1cc(Cl)ccc1Cn1c(=S)[nH]c(=O)c2[nH]ccc21		human severe renal impairment	oral, 2.5 mg single dose		adverse events causing discontinuation	0%
CN1CCc2nc(C(=O)N[C@@H]3C[C@@H](C(=O)N(C)C)CC[C@@H]3NC(=O)C(=O)Nc3ccc(Cl)cn3)sc2C1		human	no serious adverse events, together with: enzalutamide		adverse events	not toxic
C=CC(=O)NC1CCN(c2ncc3ncnc(Nc4ccc(Oc5ccc6c(c5)ncn6C)c(C)c4)c3n2)CC1	refers to: musculoskeletal disorders (SOC)	human male	oral, dose not given, CTCAE on-treatment AEs		adverse events incidence	6%

Repeated from above:
Compound	test	test system	conditions	how to read	measurement	result
O=C(Nc1cnccc1Cl)N1CCN(Cc2ccc3c(c2)OC(F)(F)O3)CC1	refers to: Ecchymosis	human healthy young men	10 mg, multiple dose		adverse event incidence	0%
CNC(=O)c1ccc(-c2cnc3ncc(Cc4ccc5ncccc5c4)n3n2)cc1F	refers to: nausea	healthy human subjects	oral, dose not given, inhibition cohort, any grade, all-causality	relative to: subjects	adverse event incidence	11.1%
